# Assay results collected from several papers.
# Numbered parts are unrelated; each lists some results of a single study. Numbers after ± are the reported error.

# Sample 1 — organism: SARS-CoV-2 Wuhan spike VSV pseudovirus; read-out: pseudovirus entry; concentration: 10 µM
SMILES,inhibition [%]
O=C(c1cccc(N2CCCN(Cc3ccccc3)C2=O)c1)N1CCN(c2cccc(Cl)c2)CC1,69
O=C(NCCSc1ccc([N+](=O)[O-])c2onnc12)Oc1cccc(C(F)(F)F)c1,57
Cc1nc(Sc2nnnn2C2CC2)c2c(C)c(C)sc2n1,62
Cn1c2c(c(=O)n(C)c1=O)C(c1cccc(Br)c1)C1=C(COC1=O)N2 (stereo not drawn),37
CCOC(=O)C1(Cc2cccc(F)c2)CCN(C(=O)C2CCC2)CC1,81
C=CCc1c(O)c(CC)cc2c(C)cc(=O)oc12,100
O=C1c2ccccc2C(=O)N1Cn1ncc(Cl)c(Cl)c1=O,99
OC[C@@H]1CN(C2CCSCC2)C[C@H]1c1nc(-c2cccnc2)no1,68
Cc1oc(-c2ccc(C(F)(F)F)cc2)nc1CN1CCN(c2ccccc2)C(=O)C1,65
CCCNC(=O)C1CCCN1C(=O)c1ccc(NC(=O)C(C)(C)C)cc1 (stereo not drawn),54
CS(=O)(=O)CC(=O)N1CCCC2(CCNC2)C1 (stereo not drawn),100
CC(C)NC(=O)c1cccc(-c2noc(-c3cc4ccccc4[nH]3)n2)c1,65
C=CCNC1=C2C[C@@H](C)C[C@H](OC)[C@H](O)[C@@H](C)/C=C(\C)[C@H](OC(N)=O)[C@@H](OC)/C=C\C=C(/C)C(=O)NC(=CC1=O)C2=O,96
Cc1cc(Cl)c2c3c(c(=O)oc2c1)CCC3,61
O=C(CC1CC1)N1CC(F)(F)C[C@H]1c1nc(-c2cccnc2)no1,72

# Single results of other studies
# rep papain-like protease: Replicase polyprotein 1ab, papain-like protease (rep, Severe acute respiratory syndrome coronavirus 2, UniProt P0DTD1)
# rep nsp12 RdRp: Replicase polyprotein 1ab, nsp12 RdRp (rep, Severe acute respiratory syndrome coronavirus 2, UniProt P0DTD1)
# rep nsp14: Replicase polyprotein 1ab, nsp14 (rep, Severe acute respiratory syndrome coronavirus 2, UniProt P0DTD1)
# Matrix protein 2 S31N: Matrix protein 2 (Influenza A virus, UniProt P0DOF5, S31N)
Molecule,tested on,test,system,setting,how to read,quantity,result
N#C[C@@]1(n2ccc(N)nc2=O)O[C@H](CO)[C@@H](O)[C@H]1O,SARS-CoV-2 Delta,viral replication,Calu-3,,,EC90,4.9 ± 4.1 µM
C[C@@]12C[C@@]3(O)O[C@@H](O1)[C@]1(COC(=O)c4ccc(O)cc4)[C@H]3C[C@@]12O[C@@H]1O[C@H](COC(=O)c2ccccc2)[C@@H](O)[C@H](O)[C@H]1O,rep papain-like protease,,,"concentration not given, C111S mutant",baseline: positive control,activity,18.7%
CC1(C)[C@@H](O[C@H]2O[C@H](C(=O)O)[C@@H](O)[C@H](O)[C@H]2O[C@@H]2O[C@H](C(=O)O)[C@@H](O)[C@H](O)[C@H]2O)CC[C@]2(C)[C@H]3C(=O)C=C4[C@@H]5C[C@@](C)(C(=O)O)CC[C@]5(C)CC[C@@]4(C)[C@]3(C)CC[C@@H]12.N,rep nsp12 RdRp,"binding, biolayer interferometry",,concentration not given,,BLI response,0.01 nm
O=C(NC1CCN(c2ncnc3[nH]cnc23)CC1)c1cccc(S(=O)(=O)N2CCCCC2)c1,rep nsp14,"NSP14 enzyme activity, inhibitor",,0.1953 µM,,inhibition,1.4%
Cl.NC12C3CCC4C3C3C(CCC31)C42,Matrix protein 2 S31N,,,"concentration not given, pH 5.5, cell-based",,inhibition,0%
SLVAVTAAQSTIEEQAHTFLDKFN,SARS-CoV-2 spike RBD,peptide spot array,peptide,concentration not given,baseline: wild-type ACE2 peptide,relative binding,3.18
CCC(CC)COC(=O)[C@H](C)N[P@](=O)(OC[C@H]1O[C@@](C#N)(c2ccc3c(N)ncnn23)[C@H](O)[C@@H]1O)Oc1ccccc1,SARS-CoV-2,viral replication,"Calu-3, Beta",,,EC50,90 ± 20 nM
COc1nc(N)nc2c1ncn2[C@@H]1O[C@H](CO)[C@@H](O)[C@@H]1O,SARS-CoV-2,viral RNA copies,"Vero C1008, Omicron BA.1",48 h,,EC50,1760 ± 80 nM
C[C@@H]1CC[C@]2(C(=O)O[C@@H]3O[C@H](CO)[C@@H](O)[C@H](O)[C@H]3O)CC[C@]3(C)C(=CC[C@@H]4[C@@]5(C)C[C@@H](O)[C@H](O)C(C)(C)[C@@H]5CC[C@]43C)[C@@H]2[C@]1(C)O,rep papain-like protease,,,"concentration not given, C111S mutant",baseline: positive control,activity,18.7%
Nc1ncnc2c1ncn2[C@@H]1O[C@H](CSCC[C@H](N)C(=O)O)[C@@H](O)[C@H]1O,rep nsp14,thermal shift,,31.25 µM,,ΔTm,8.2 °C
Cc1c(-c2ccnn2C)cc(C(=O)NCc2ccc(S(C)(=O)=O)cn2)c(=O)n1-c1cccc(C(F)(F)F)c1,rep nsp12 RdRp,"binding, biolayer interferometry",,concentration not given,,BLI response,-0.01 nm
CCC(CC)[C@H](NC(C)=O)[C@@H]1[C@H](O)[C@@H](C(=O)O)C[C@H]1N=C(N)N,"neuraminidase (Influenza B virus, UniProt A0A1S5RAG6, G407S)",,,,,IC50,0.7 ± 0.2 nM
SLVAHTAAQSTIEEQAKTFLDKFN,SARS-CoV-2 spike RBD,peptide spot array,peptide,concentration not given,baseline: wild-type ACE2 peptide,relative binding,3.03
CC(C)C(=O)OC[C@H]1O[C@@H](n2ccc(NO)nc2=O)[C@H](O)[C@@H]1O,SARS-CoV-2,infectious virus yield,"Vero C1008, Omicron BA.1",48 h,,EC50,2600 ± 110 nM
NC12CC3CC(CC(C3)O1)C2,Matrix protein 2 S31N,,,"concentration not given, pH 5.5, cell-based",,inhibition,0%

# A few entries again (sample 1):
SMILES,inhibition [%]
Cc1oc(-c2ccc(C(F)(F)F)cc2)nc1CN1CCN(c2ccccc2)C(=O)C1,65
CCCNC(=O)C1CCCN1C(=O)c1ccc(NC(=O)C(C)(C)C)cc1 (stereo not drawn),54
CS(=O)(=O)CC(=O)N1CCCC2(CCNC2)C1 (stereo not drawn),100
CC(C)NC(=O)c1cccc(-c2noc(-c3cc4ccccc4[nH]3)n2)c1,65
